Assay results pooled from the literature.
Method: steady-state kinetics
B1: protein (Danio rerio, UniProt A0EXC5); chain MTESELYSVHKGVFVPTHLHPAESLKYYEDFIFRPDDILIVTYPKSGTIWMQEIVPLVVSEGDLTLVLTVPNWDRVPWLEEHRAILLSLEQRASPRIFATHFHHQMMNPSYFKIEPRVLYVMRNPKDVFISSFHYYGMASFLVNPGTQDEFMEKFLNGNIMFGSWFDHVKGWLNAAEQEHILYISYEEMINDLRASVEKIATFLGKSLSSEVVEKIADHCVFKNMKQNKMSNLSLVPEEFMDQKKSEFLRKGIAGDWKNHFSAAQEERFNAVYDDKMKDVKFKFPWD
B2: MCAT (Homo sapiens, UniProt Q8IVS2); chain GQGSQVVGMGRGLLNYPRVRELYAAARRVLGYDLLELSLHGPQETLDRTVHCQPAIFVASLAAVEKLHHLQPSVIENCVAAAGFSVGEFAALVFAGAMEFAEGLYAVKIRAEAMQEASEAVPSGMLSVLGQPQSKFNFACLEAREHCKSLGIENPVCEVSNYLFPDCRVISGHQEALRFLQKNSSKFHFRRTRMLPVSGAFHTRLMEPAVEPLTQALKAVDIKKPLVSVYSNVHAHRYRHPGHIHKLLAQQLVSPVKWEQTMHAIYERKKGRGFPQTFEVGPGRQLGAILKSCNMQAWKSYSAVDVL
B3: protein (Adiantum capillus-veneris, UniProt A0A4Y6I289); chain MTDAVENKQVEFGALEVEGIKFAPSVAALGSTKQLVLGGAGFRGLEISGNLVKFTAIGIYVDEAIIPHLSPKLHGKSIEELCNNELLFEEVLAAPFEKLVRVVFLLPLTGPQYSEKVVERMGLLPNPGIKEESTKQFLEIFKPENFPPRTSLICSFTEEALKVAFMKTDDFPEDADAVIEDKWLARAFLASIIGKDGVSPLAKLSFAERMSRCL
B4: enzyme (Acinetobacter baumannii, UniProt D0CBC8); chain MALVLDGRALAKQIEENLLVRVEALKAKTGRTPILATILVGDDGASATYVRMKGNACRRVGMDSLKIELPQETTTEQLLAEIEKLNANPDVHGILLQHPVPAQIDERACFDAISLAKDVDGVTCLGFGRMAMGEAAYGSATPAGIMTILKENNIEIAGKHAVVVGRSAILGKPMAMMLLQANATVTICHSRTQNLPELVKQADIIVGAVGKAELIQKDWIKQGAVVVDAGFHPRDGGGVGDIQLQGIEEIASAYTPVPGGVGPMTITTLIRQTVEAAEKALG
B5: ybiA (Escherichia coli, UniProt P30176); chain MPVRAQRIQHVMQDTIINFYSTSDDYGDFSNFAAWPIKVDGKTWPTSEHYFQAQKFLDEKYREEIRRVSSPMVAARMGRDRSKPLRKNWESVKEQVMRKALRAKFEQHAELRALLLATAPAKLVEHTENDAYWGDGGHGKGKNRLGYLLMELREQLAIEK
B6: protein (Streptomyces coelicolor, UniProt P16544); chain MATQDSEVALVTGATSGIGLEIARRLGKEGLRVFVCARGEEGLRTTLKELREAGVEADGRTCDVRSVPEIEALVAAVVERYGPVDVLVNNAGRPGGGATAELADELWLDVVETNLTGVFRVTKQVLKAGGMLERGTGRIVNIASTGGKQGVVHAAPYSASKHGVVGFTKALGLELARTGITVNAVCPGFVETPMAASVREHYSDIWEVSTEEAFDRITARVPIGRYVQPSEVAEMVAYLIGPGAAAVTAQALNVCGGLGNY
B7: Paox H64Q (Mus musculus, UniProt Q8C0L6); chain MAFPGPRVLVVGSGIAGLGAAQKLCSHRAAPHLRVLEATASAGGRIRSERCFGGVVELGAHWIQGPSQDNPVFQLAAEFGLLGEKELSEENQLVDTGGHVALPSMIWSSSGTSVSLELMTEMARLFYGLIERTREFLNESETPMASVGEFLKKEISQQVASWTEDDEDTRKRKLAILNTFFNIECCVSGTHSMDLVALAPFGEYTVLPGLDCILAGGYQGLTDRILASLPKDTVAFDKPVKTIHWNGSFQEAAFPGETFPVLVECEDGARLPAHHVIVTVPLGFLKEHQDTFFEPPLPAKKAEAIKKLGFGTNNKIFLEFEEPFWEPDCQFIQVVWEDTSPLQDTALSLQDTWFKKLIGFLVQPSFESSHVLCGFIAGLESEFMETLSDEEVLLSLTQVLRRVTGNPQLPAAKSVRRSQWHSAPYTRGSYSYVAVGSTGDDLDLMAQPLPEDGTGTQLQVLFAGEATHRTFYSTTHGALLSGWREADRLVSLWDSQVEQSRPRL
UniProt Q9Y267, sequence (whole entry, looked up): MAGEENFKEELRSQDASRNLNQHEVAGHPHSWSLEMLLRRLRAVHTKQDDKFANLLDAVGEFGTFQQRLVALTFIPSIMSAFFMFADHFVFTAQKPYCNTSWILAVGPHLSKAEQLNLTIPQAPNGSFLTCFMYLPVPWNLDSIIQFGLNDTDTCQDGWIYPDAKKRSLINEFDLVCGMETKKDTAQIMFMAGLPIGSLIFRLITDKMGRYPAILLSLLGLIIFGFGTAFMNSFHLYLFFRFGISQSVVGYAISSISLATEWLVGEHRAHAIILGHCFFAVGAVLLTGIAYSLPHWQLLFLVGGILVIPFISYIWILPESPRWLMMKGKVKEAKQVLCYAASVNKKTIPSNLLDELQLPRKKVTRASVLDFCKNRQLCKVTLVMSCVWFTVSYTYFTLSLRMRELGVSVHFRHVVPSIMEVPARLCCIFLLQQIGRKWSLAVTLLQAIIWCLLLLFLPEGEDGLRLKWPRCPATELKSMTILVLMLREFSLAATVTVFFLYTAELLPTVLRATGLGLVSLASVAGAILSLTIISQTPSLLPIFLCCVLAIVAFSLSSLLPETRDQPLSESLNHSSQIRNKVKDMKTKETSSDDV
UniProt Q8KLK7, sequence (whole entry, looked up): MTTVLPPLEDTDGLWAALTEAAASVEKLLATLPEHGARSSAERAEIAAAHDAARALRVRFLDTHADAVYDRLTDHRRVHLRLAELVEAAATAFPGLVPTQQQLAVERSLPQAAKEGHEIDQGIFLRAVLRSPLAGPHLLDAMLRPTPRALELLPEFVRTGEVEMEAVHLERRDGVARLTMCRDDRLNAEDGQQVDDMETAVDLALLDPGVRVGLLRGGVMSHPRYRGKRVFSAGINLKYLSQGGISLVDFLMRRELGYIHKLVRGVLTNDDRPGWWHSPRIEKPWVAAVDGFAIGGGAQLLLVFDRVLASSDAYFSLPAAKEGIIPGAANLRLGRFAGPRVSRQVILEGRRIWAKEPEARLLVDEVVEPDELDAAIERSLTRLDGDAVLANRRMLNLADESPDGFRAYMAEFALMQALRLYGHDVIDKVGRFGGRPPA
UniProt O60656, sequence (whole entry, looked up): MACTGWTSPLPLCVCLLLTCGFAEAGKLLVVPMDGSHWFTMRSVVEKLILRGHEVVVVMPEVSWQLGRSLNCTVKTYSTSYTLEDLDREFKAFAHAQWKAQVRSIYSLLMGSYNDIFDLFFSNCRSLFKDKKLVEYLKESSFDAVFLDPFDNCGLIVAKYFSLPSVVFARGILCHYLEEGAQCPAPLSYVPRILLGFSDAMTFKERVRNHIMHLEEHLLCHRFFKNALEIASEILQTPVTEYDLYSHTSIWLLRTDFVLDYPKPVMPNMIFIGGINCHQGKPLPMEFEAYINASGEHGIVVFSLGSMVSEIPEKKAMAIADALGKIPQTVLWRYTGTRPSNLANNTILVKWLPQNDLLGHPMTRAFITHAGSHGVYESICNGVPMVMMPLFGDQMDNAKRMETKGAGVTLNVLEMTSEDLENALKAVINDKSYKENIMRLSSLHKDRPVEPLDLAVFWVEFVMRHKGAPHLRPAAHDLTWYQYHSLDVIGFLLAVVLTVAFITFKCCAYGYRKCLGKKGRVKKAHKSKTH

SLC22A14 (Homo sapiens, UniProt Q9Y267)
Km (Cc1cc2nc3c(=O)[nH]c(=O)nc-3n(C[C@H](O)[C@H](O)[C@H](O)CO)c2cc1C; 37 °C, not purified): 0.778 µM

B1 (protein)
Km (C[C@H](CCCC(CO)CO)[C@H]1CC[C@H]2[C@@H]3[C@H](O)C[C@H]4C[C@H](O)CC[C@]4(C)[C@H]3C[C@H](O)[C@]12C; pH 7, 28 °C, substrate inhibition, together with: PAPS 14 µM): 7.73 µM

B2 (MCAT)
Km (CC(C)(COP(=O)(O)OP(=O)(O)OC[C@H]1O[C@@H](n2cnc3c(N)ncnc32)[C@H](O)[C@@H]1OP(=O)(O)O)[C@@H](O)C(=O)NCCC(=O)NCCSC(=O)CC(=O)O; pH 6.8, 20 °C, labelled substrate, together with: holo-ACP 20 µM): 3.1 µM

UGT1A9 (Homo sapiens, UniProt O60656)
Km (O=C(/C=C/c1ccccc1O)c1ccccc1; pH 7.4, 37 °C): 0.23 µM

Gcs (Leishmania donovani, UniProt Q67BG3)
Km (N[C@@H](CS)C(=O)O; apparent, together with: ATP, L-glutamate, Mg2+): 1700 µM

B3 (protein)
Km (O=C(/C=C/c1ccc(O)cc1)c1c(O)cc(O)cc1O): 98.2 µM

B4 (enzyme)
Km (Nc1nc2c(c(=O)[nH]1)[N+]1=CN(c3ccc(C(=O)N[C@@H](CCC(=O)O)C(=O)[O-])cc3)C[C@H]1CN2; pH 7.3, 27 °C): 40.3 µM

protein (Streptomyces toyocaensis, UniProt Q8KLK7)
Km (CC(C)(COP(=O)(O)OP(=O)(O)OC[C@H]1O[C@@H](n2cnc3c(N)ncnc32)[C@H](O)[C@@H]1OP(=O)(O)O)[C@@H](O)C(=O)NCCC(=O)NCCSC(=O)Cc1cc(O)cc(O)c1; pH 7.5, 24 °C, together with: O2): 2.3 µM

B5 (ybiA)
Km (Nc1nc(N[C@@H]2O[C@H](COP(=O)(O)O)[C@@H](O)[C@H]2O)c(N)c(=O)[nH]1; pH 8, 22 °C, substrate not purified): 4040 µM

protein (Trichoderma virens, UniProt G9MQB8)
Km (O=c1ccn([C@@H]2O[C@H](COP(=O)(O)OP(=O)(O)OP(=O)(O)O)[C@@H](O)[C@H]2O)c(=O)[nH]1; pH 7.5, KCl 150 mM, together with: SAM 1 mM, dithionite 5 mM): 79 µM

B6 (protein)
Km (O[C@H]1CCCc2ccccc21; pH 7.4, phosphate 400 mM, NADPH 250 µM printed, together with: NADP+, reverse reaction): 6910 µM

enzyme (UniProt A0A7J5BGR1)
Km (Oc1ccc2c(c1)CCC2; pH 8, 25 °C): 425 µM

B7 (Paox H64Q)
Km (CC(=O)NCCCNCCCCNCCCN; pH 10, 30 °C): 53 µM

Excerpt of the above:
B5 (ybiA)
Km (Nc1nc(N[C@@H]2O[C@H](COP(=O)(O)O)[C@@H](O)[C@H]2O)c(N)c(=O)[nH]1; pH 8, 22 °C, substrate not purified): 4040 µM
